# Published values pooled from the literature.
# Every numbered part comes from another study and shows a few of its results, in no order.

# Series 1 — method: aptamer microarray, sandwich; form: DNA with 2'F-ANA; matrix: in vitro; tested at: 200 nM; with: Cy3 exosite-II aptamer, 400 nM; direction: higher = stronger binding; oligonucleotide: GGTTGGTGTGGTTGG
# Target: Prothrombin, mature alpha-thrombin (F2, Homo sapiens, UniProt P00734)
# Notes: whole 15-mer aptamer, many near background
Modification,mean fluorescence intensity [a.u.]
2'F-ANA at 1 5 6 7 11 15,63.2
2'F-ANA at 1 2 4 6 7 10 12 13,49.7
2'F-ANA at 1 2 3 5 6 7 9 15,56.9
2'F-ANA at 1 2 4 13 14,48.2
2'F-ANA at 1 3 4 5 6 9 12 14 15,48.2
2'F-ANA at 1 3 6 8 10 13,159
2'F-ANA at 2 3 4 5 6 9 11 15,71.1
2'F-ANA at 1 2 4 5 7 8 9 11 13 15,48.9
2'F-ANA at 1 2 3 4 6 7 8 9 11 15,139
2'F-ANA at 1 2 3 4 5 7 8 9 10 11 13,47.3
2'F-ANA at 1 2 5 6 11 12 13 15,71.9
2'F-ANA at 2 3 4 12 14,413
2'F-ANA at 1 3 4 9 10 14 15,50.9
2'F-ANA at 3 5 8 10,58.1
2'F-ANA at 1 3 4 5 6 11 12 13 14 15,47.6
2'F-ANA at 2 3 6 8 9 14,386
2'F-ANA at 1 3 4 7 8 9 12 13,286
2'F-ANA at 2 3 4 5 6 8 12 13 14,51.8
2'F-ANA at 1 3 5 6 8 9 10 12 13 15,61.2
2'F-ANA at 4 10 12 13 14 15,68.9
2'F-ANA at 2 3 4 5 9 10,51.2

# Series 2 — method: RNA Bind-n-Seq; form: RNA; matrix: in vitro; tested at: not given; notes: RNA with constant flanks, ends assumed; baseline: input RNA pool; direction: higher = stronger binding
# Target: RING finger protein unkempt homolog, zinc fingers 1-6, GST-SBP tag (UNK, Homo sapiens, UniProt Q9C0B0, residues 30-357)
# Chain of UniProt Q9C0B0 (30-357, looked up): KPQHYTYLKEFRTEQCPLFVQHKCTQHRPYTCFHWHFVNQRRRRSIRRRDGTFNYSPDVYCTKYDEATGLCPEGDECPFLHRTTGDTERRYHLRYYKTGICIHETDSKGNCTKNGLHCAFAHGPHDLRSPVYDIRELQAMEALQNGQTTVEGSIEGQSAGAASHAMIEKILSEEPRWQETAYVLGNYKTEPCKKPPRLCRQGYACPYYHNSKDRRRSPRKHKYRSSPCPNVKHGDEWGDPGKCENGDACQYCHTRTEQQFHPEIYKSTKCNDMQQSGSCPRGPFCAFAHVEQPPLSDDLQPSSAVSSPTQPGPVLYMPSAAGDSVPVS
# All sequences stand within: GGGAGUUCUACAGUCCGACGAUC … CAACAGAGGAUUGAGCAUCA
Oligonucleotide,bound/input enrichment [ratio]
UGCUGUAGGUUAUUUUAUAAAGAUGCCAAAGGAAACAAGUUUUUCUUUAUUUAUUUUAAGCCGCUAAAACUUUGUACUGUUCUUUAUAUUCUCAGAUAAGAAGGAAAUGUGUGAAAUAAC,0.392
UCAGCUUAGGCCUUCCAAGGAACAAUGAAAACUAUGUGCUGGCCAUUUGUUUAUCAGAUUCUCCGUAUAUACUCCUCCCUUCCCACCACCUUCCUGUCAAUUCCAGUACGAGACAGAAGG,0.259
AGGUUUCCGGUUCCGGUGUAACGUUCGGGCUCCGUCUCAGGGGCUGAAGUUUGUGAGGUGCCGUUUUUUUGUCCCAUUGGAGCUCUCAUUCUCCAUUUUCUCCGAAAUGGCGCUGUCUAA,0.079
CAACUUGGGGAGGAUAUUCGGCGAAUUCCUAUUCAUAAUGAAGAUAUUACUUAUGAUGAAUCCGUGCUAAUGAUGCAACGAGUUUUCAGAGGAAAACUUCUGAGUAAUGAUGAAGUAACA,0.0798
GUUGAGCCAGCAAGUCAUGGGAGCAAGGGGUAGAUGGACAGUCCGGCACUACAGAACCGUCACCGGUCUCAAGAGGUCUGGGUGGGAGGUGAAGGGAGAGAACCAAAGCAGAUAGGGAAU,0.542
GCAGGGCUUUACUUUACACUCUCCUUUUUAUCCUUGUAUUUUUCUAAAGGUAACUGAUUGCUCCGAUGCUGAGUAAGGAAGAUACAUUGUUGUCAUUGUUUGGCUUUGGUAGAAUGAAAC,0.197
AUUGUGGGAGCGCUGAUGGCCAGUGGCAAAGAAGUGGCUGGGAAGAUCCCCAAAGGGAAGUCCGUCGACUUUGAAGCCAUGACAGCCCCUGGCUCAGAGGCCUUCAGCAAAAUAGCAAAA,0.18
GACCAUGAAUUAUGGAAUUUCCUAAAUGAAGCAUUCAGGAAUGGAAUGAGAGAAUGUCACACCGAAAAUAAAUGAUUUUUAAGUUAUGUCUAUUAAUUUGACUCUAGAUAUAUAUAUUUA,2.53
GGACGGGCACAGCUGGCGUGACCACCAUGAGUCUGGGAGCACCUCCCACUAUGUCAAACUUCCGCCCUUUGACUAUUCCUCCUGCUAGCGUGAAGCAGCCUCAACAGAGACCAACCGAUA,0.21
UUCCUCUGCUUGUUUUGAGCCCACCUUGGGGGCUGCUCGUGUAAUGAGAUUUUGAGAAGGCCGCUCCCGCCCAGGUGGGGUCCAGGUUUAGAGUCAGUAGCAGAUGCACCCCACACAAGC,0.283
UUUGAAGUAAAGACCAUACAUGGGAGCAAGUCAGUGGACUCUGGGAUCUAUCUGGACAGCCGUUACAAAAUGGAUUAUCCUGAAAUGGGCAUAUGCAUAAUAAUUAAUAAUAAGAACUUC,0.885

# Series 3 — method: protein binding microarray; form: double-stranded DNA, one strand shown; matrix: in vitro; tested at: not given; baseline: not given; direction: higher = stronger binding
# Target: Histone acetyltransferase KAT6A, winged helix 2, GST fusion (KAT6A, Homo sapiens, UniProt Q92794, residues 85-181)
# Notes: 8-mer, flanks averaged, mean of 2 arrays, mostly near background
# Residues (chain): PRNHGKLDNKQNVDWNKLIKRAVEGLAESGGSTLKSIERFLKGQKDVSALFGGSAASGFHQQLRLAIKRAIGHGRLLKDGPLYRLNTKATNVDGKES
Oligonucleotide,E-score
AAACCGGC,0.104
CTCTGAAG,-0.0129
AAGCTCAC,0.00775
CCTGAGAC,0.0749
CGAGGCGA,0.176
AGCTTGTC,0.0805
GCTCCTCC,-0.0808
AAGACTTG,-0.169
TCAGATCA,0.0596
TGCCGCAA,0.0772
CTACCTAA,-0.0227
AATAGCGC,-0.0399
GGGCGTAA,-0.151
AATCTAGC,-0.0802
ATCGTTTA,0.0122
CTCCCCTC,0.212
CGCTGACC,0.184
CTAAATAA,0.0656
CATGTCTA,-0.0629
ATGGTCAG,0.0542
AACACAGG,-0.141
GCCGGGCC,0.197
CGCCGGAA,0.272
AGGTATGG,-0.191

# Series 4 — method: RNA Bind-n-Seq; form: RNA; matrix: in vitro; tested at: 365 nM; baseline: no-protein control; direction: higher = stronger binding
# Target: RNA binding protein fox-1 homolog 2, RRM domain, GST-SBP tag (RBFOX2, Homo sapiens, UniProt O43251-10, residues 100-194)
# Notes: natural RNA segment, single round, ends assumed
# All sequences stand within: GGGAGUUCUACAGUCCGACGAUC … UGGAAUUCUCGGGUGCCAA
# Construct (chain): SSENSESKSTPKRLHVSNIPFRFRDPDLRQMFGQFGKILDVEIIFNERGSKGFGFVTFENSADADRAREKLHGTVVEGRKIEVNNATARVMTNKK
Oligonucleotide,RBNS enrichment (R)
AGAAAUGUGGGUUGGUUUGGGAAUAGAAACUUGUUCCUGCAUGAGAUGGCUUUGGGUGUCUGGUACCACUCCUUCCCUUCCCCCUACCUGGCCGAUUGGUGCUCCUUCUA,2.33
CAGGGGACAGGAAUCCGUACCCAACUGCCCCGUUCUUUCUUCCCAUUCUUUCUUCCUAGGAUGCAUAAACUAUCUUGUCUCAUUUAUUUUUUAAUUUUUUUUCAGAUAGA,0.502
CCCUCCCCUUUUGGAAAUAUGAAAGCAAAUGUUUAGAAGAAUUCCUUUUGAAAAGCUGUGUCGUGUUCCCUGUGAAACUGAGCAGGUGUGUGUUGGCGCGCUAAGUGCCA,0.777
AAAAUAAAAAUAAAAAAUCCUCACCUCAACAUAGGUCUCUUUCAAAGGGAGAUUUCAAGCCACCUGACUUCUUCAGUUUAGUCUUCACCCAGGGUCAGAGCGCACAGCUU,0.711
CCUUGCAUUUCCUUCUUAACUCUCUGUUACACGUCAUUGAAACUACACUUUUUUGGUCUGUUUUUGUGCUAGACUGUAAGUUCCUUGGGGGCAGGGCCUUUGUCUGUCUC,0.493
UGUUAAGAGAAGCACUAAGAAUGCCAGUGACCUGUGUAAAAGUUACAAGUAAUAGAACUAUGACUGUAAGCCUCAGUACUGUACAAGGGAAGCUUUUCCUCUCUCUAAUU,0.399
GGGAUUACAGGUGUGAGCCACCGCACGUAGCAUUUACAUUAGGUAUUACAAGUAAUGUAAAGAUGAUUUAAGUAUACAGGAGGAUGUGAAUAGGUUAUAUGCAAGCACUA,2.43
GCUUCCUGGUUAUCACUUACAUUCCGUAAGGAGCUGUUCCUUAGGACCGGUUGGAAGUAGAAGAAACAUCUCUCCCUGCACCCGAAUGUCCAGUGGAGCCUCAAGUUUUC,0.211
AGUUUCUUACAGAAAGUACCUGUGAUUUUUUUUAAUGUUUAGAUUUGUAGUCUAGUCUAUUCUGAAGAUAUUUGAUUAAUAUAUUUCUAAGAAGACCACUAGUCCCAUGA,0.538
CGAGGGCUCCAGGUGCUAUCUUAGGUGGACACAGCCCUGGGGGCUCCUUCCAGGAGGGGACCCUCAGCCCUGUGCCCCCCACCACUUCAGGCCACACCAGGUUCCCUCUG,0.159
GCUGAACCUUUAAUAGGGGACCCUGGGGACCCAGCAGUAGCACGAGGGCUGCACACACAGGGCGGCUCUCUGUGCUGGUCCCUUCGUAGCUCCCCAGACCCGCUCUGUUC,0.449
CUAUUUUAGAAGUAGGGUGUGAACAUAUAUUUUUAGAGGAAAAGCUGAUAGUCAUAGGGAAUAUAUGAUUUAUUGGACCAACACCCAAAUCAAGAAGCUUAAAACUGCAC,0.503

# Some of these lines once more (series 1):
Modification,mean fluorescence intensity [a.u.]
2'F-ANA at 2 3 6 8 9 14,386
2'F-ANA at 1 3 4 7 8 9 12 13,286
2'F-ANA at 2 3 4 5 6 8 12 13 14,51.8
2'F-ANA at 1 3 5 6 8 9 10 12 13 15,61.2
2'F-ANA at 4 10 12 13 14 15,68.9
2'F-ANA at 2 3 4 5 9 10,51.2
